Measured values pooled from the literature.
Every numbered part comes from another study and shows a few of its results, in no order.
Chain of UniProt P10721 (whole entry, unmodified, looked up): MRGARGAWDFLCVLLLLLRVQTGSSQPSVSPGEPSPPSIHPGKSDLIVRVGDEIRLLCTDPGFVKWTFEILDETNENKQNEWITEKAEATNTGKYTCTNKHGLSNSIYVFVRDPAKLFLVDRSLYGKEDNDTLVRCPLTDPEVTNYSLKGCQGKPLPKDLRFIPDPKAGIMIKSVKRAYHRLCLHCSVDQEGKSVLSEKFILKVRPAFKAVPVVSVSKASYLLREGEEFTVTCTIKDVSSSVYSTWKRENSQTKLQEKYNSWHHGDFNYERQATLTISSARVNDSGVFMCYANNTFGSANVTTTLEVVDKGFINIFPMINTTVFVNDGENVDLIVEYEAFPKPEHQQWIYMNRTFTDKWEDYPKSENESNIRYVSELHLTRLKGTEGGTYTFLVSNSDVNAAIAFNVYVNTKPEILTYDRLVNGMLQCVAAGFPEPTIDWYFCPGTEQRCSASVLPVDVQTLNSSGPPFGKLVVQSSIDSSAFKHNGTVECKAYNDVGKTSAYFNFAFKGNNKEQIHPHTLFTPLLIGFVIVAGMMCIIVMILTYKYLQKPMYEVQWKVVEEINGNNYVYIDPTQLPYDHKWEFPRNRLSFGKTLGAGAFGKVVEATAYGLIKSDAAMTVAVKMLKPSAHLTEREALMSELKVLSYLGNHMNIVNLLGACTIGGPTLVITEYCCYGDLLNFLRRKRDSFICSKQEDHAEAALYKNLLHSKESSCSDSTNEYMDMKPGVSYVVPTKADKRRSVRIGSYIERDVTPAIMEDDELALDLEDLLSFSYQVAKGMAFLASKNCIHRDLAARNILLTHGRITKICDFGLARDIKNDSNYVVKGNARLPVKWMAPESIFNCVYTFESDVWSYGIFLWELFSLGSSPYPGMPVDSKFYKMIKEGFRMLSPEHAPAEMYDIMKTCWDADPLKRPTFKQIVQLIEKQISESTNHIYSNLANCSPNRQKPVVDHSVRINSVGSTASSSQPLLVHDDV
Chain of UniProt P78356 (whole entry, looked up): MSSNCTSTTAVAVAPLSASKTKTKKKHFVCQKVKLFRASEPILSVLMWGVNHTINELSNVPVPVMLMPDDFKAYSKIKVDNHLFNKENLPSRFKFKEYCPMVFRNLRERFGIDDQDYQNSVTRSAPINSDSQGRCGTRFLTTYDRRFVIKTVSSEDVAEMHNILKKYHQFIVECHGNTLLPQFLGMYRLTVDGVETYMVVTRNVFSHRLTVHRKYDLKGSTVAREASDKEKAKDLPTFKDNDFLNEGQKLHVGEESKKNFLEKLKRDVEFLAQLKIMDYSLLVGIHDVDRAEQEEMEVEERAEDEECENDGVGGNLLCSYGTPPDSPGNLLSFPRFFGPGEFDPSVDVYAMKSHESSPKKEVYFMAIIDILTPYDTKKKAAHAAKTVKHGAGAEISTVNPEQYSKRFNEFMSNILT
Chain of UniProt P52564 (whole entry, looked up): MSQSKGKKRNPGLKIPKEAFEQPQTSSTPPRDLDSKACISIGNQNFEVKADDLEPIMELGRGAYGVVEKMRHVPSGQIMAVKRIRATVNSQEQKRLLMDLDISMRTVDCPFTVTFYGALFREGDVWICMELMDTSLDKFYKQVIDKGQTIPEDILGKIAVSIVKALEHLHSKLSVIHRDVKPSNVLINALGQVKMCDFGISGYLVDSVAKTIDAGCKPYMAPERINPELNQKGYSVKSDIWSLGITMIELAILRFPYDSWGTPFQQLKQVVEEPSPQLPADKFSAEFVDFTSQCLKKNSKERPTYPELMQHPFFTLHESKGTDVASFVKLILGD
Chain of UniProt Q8N752 (whole entry, looked up): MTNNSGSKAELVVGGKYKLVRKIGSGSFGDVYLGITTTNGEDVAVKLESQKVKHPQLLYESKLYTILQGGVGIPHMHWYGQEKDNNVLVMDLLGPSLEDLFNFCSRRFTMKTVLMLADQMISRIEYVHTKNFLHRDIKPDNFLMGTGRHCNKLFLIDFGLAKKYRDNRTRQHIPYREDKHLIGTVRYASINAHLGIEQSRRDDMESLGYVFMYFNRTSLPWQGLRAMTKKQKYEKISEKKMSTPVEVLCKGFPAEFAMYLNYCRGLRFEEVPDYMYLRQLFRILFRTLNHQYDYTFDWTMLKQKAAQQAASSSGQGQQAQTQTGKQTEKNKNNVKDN
Chain of UniProt Q99755 (whole entry, looked up): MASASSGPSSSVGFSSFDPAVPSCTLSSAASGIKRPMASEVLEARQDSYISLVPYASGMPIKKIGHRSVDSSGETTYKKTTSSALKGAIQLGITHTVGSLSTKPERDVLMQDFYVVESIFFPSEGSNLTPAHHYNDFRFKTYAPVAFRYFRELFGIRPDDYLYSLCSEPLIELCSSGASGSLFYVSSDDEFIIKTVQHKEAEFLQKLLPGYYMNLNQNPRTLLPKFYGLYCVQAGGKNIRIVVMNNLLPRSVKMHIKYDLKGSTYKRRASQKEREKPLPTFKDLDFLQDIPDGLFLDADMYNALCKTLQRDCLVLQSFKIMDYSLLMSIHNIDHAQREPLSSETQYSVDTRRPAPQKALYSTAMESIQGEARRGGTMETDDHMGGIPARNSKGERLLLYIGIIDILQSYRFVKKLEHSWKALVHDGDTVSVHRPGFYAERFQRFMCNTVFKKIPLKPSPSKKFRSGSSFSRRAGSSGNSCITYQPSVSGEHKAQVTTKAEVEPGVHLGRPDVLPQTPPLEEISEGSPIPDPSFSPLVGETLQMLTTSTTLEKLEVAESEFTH
Chain of UniProt P11362 (whole entry, looked up): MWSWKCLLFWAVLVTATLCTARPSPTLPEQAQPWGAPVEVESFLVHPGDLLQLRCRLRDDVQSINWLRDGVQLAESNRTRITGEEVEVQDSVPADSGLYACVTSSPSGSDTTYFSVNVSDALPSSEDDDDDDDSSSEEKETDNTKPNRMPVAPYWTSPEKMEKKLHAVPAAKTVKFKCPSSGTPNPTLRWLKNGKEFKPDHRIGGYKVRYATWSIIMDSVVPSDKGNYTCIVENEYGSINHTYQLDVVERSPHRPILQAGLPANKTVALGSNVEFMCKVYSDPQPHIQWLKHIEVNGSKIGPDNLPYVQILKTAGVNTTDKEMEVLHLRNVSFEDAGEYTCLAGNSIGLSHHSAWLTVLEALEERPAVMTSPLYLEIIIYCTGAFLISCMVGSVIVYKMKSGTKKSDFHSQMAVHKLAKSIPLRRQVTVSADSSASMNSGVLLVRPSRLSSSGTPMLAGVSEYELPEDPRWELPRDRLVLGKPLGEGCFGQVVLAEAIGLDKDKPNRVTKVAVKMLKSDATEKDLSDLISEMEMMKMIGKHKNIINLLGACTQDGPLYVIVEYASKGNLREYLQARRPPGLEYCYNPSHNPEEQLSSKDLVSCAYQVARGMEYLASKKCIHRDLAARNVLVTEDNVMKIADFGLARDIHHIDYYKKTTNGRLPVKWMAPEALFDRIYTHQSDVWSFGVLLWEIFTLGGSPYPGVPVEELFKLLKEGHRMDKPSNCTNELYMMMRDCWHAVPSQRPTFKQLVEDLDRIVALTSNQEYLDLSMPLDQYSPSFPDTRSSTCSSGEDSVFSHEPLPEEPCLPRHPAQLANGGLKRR
Chain of UniProt Q96BR1 (whole entry, looked up): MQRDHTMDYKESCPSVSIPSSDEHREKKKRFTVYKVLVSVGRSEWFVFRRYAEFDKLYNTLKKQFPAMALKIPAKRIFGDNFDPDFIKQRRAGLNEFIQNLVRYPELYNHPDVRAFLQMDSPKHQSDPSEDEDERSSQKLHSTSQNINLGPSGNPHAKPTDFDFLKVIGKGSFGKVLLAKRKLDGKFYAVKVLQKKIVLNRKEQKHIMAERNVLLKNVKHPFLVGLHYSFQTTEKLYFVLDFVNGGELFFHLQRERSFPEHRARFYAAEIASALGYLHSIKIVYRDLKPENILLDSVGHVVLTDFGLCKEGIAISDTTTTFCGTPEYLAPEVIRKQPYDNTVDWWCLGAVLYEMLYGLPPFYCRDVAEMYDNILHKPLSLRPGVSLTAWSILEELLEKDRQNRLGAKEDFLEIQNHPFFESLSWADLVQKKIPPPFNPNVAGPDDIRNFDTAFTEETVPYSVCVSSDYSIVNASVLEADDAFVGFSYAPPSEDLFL

Set 1 — species: human; medium: microsomes or S9; concentration: 2 µM; time: 0.5 h
`COc1cccc(-c2nc3cc(Cl)ccc3c3ccnn23)c1` has a remaining compound of 0.329%.
`Cc1nc(O)[nH]c(=O)c1S(=O)(=O)Nc1ccccc1C(=O)NCc1ccccc1` gave a remaining compound of 77%.
`COc1cc(=O)[nH]cc1C(=O)N1CCCC1C1CCCCC1` (centres unmarked) has a remaining compound of 58.1%.
`CCOC(=O)C1=C(NC(=O)CSc2nnc(-c3cc(C)on3)o2)SC2CCCCC12` (centres unmarked) has a remaining compound of 44.7%.
`CC(=O)c1c(NN2CCOCC2)[nH]c2c(Cl)cc([N+](=O)[O-])cc2c1=O` has a remaining compound of 32.7%.
`CCC1(C(=O)O)CCCN(C(=O)Cc2nc(C)n[nH]2)C1` (centres unmarked) has a remaining compound of over 99%.
`CC(C)C(CCN1CCN(C)CC1)c1ccco1` (centres unmarked) gave a remaining compound of 59.7%.

Set 2 — observed: enzyme activity; mode: inhibitor; concentration: 0.5 µM; baseline: control
Target: Ephrin type-B receptor 3 (EPHB3, Homo sapiens, UniProt P54753)
Chain of UniProt P54753 (whole entry, looked up): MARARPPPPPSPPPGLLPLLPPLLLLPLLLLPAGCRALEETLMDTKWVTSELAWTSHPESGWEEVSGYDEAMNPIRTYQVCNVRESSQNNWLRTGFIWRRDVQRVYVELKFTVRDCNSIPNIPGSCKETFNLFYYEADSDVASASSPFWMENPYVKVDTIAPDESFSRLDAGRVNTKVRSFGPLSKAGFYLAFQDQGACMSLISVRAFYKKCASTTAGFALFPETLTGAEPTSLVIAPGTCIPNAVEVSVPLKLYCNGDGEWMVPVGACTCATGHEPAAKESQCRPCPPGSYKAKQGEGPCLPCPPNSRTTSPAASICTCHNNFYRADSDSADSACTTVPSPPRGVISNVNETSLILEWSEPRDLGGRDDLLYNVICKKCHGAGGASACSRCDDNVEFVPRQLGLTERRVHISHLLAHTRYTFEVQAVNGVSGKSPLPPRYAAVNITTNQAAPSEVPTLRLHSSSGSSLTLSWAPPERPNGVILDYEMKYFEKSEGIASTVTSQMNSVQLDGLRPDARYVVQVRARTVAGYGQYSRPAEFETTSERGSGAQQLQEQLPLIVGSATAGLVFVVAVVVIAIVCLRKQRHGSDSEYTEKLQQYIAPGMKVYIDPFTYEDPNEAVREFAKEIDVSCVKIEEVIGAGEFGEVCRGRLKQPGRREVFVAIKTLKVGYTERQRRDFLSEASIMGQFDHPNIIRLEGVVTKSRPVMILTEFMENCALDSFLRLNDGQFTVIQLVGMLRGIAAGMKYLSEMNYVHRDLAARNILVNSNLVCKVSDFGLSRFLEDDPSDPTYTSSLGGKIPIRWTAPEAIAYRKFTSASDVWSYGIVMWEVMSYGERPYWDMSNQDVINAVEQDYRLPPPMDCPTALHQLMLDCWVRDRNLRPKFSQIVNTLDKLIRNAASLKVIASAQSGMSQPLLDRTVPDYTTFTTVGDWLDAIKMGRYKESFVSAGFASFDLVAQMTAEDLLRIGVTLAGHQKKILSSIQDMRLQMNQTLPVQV
`COc1cc2c(N3CCN(C(=O)Nc4ccc(OC(C)C)cc4)CC3)ncnc2cc1OCCCN1CCCCC1` has a remaining activity of 84.2%.
`CC(C)N(CCC(=O)c1ccc2ccccc2c1)Cc1ccccc1` has a remaining activity of 88.5%.
The remaining activity of `NC(=O)c1ccc(-c2nc(-c3ccc4c(c3)OCCO4)c(-c3ccccn3)[nH]2)cc1` is reported as 91.8%.
`O=Nc1c(-c2c(O)[nH]c3ccccc23)[nH]c2ccccc12` gave a remaining activity of 92.3%.
`CC(C)(C)c1nc2c3cc[nH]c(=O)c3c3cc(F)ccc3c2[nH]1` gave a remaining activity of 87.1%.
For `NC(=O)c1cccc(-c2cc(Nc3ccc(OC(F)(F)F)cc3)ncn2)c1`, the remaining activity was 98%.
`COc1cc2c(Nc3ccc(Br)cc3F)ncnc2cc1OCC1CCN(C)CC1` has a remaining activity of 77.4%.

Set 3 — technique: competition with immobilised ligand
SMILES: C[C@@H]1CN(c2cc(-c3n[nH]c4ccc(OC5(C)CC5)cc34)ncn2)C[C@H](C)O1
TAOK3 (Homo sapiens, UniProt Q9H2K8); cell-free assay; 0.1 µM — remaining binding: 69%.
It gave 85% for remaining binding (Ribosomal protein S6 kinase alpha-6, C-terminal kinase domain (RPS6KA6, Homo sapiens, UniProt Q9UK32); cell-free assay; 0.1 µM).
For Tyrosine-protein kinase ABL1, non-phosphorylated (ABL1, Homo sapiens, UniProt P00519, F317I); binding; 0.1 µM: remaining binding read 74%.
The remaining binding was 69% (PIK3C2G (Homo sapiens, UniProt O75747); cell-free assay; 0.1 µM).
The remaining binding was 100% (MAP2K6 (Homo sapiens, UniProt P52564); cell-free assay; 0.1 µM).
It gave 100% for remaining binding (NLK (Homo sapiens, UniProt Q9UBE8); cell-free assay; 0.1 µM).
It gave 69% for remaining binding (EGFR (Homo sapiens, UniProt P00533, del747-752/P753S); cell-free assay; 0.1 µM).
The remaining binding was 80% (HIPK2 (Homo sapiens, UniProt Q9H2X6); cell-free assay; 0.1 µM).
It gave 100% for remaining binding (PIP5K1A (Homo sapiens, UniProt Q99755); cell-free assay; 0.1 µM).
ACVR1B (Homo sapiens, UniProt P36896); cell-free assay; 0.1 µM — remaining binding: 90%.
DCLK3 (Homo sapiens, UniProt Q9C098); cell-free assay; 0.1 µM — remaining binding: 92%.
The remaining binding was 69% (HIPK1 (Homo sapiens, UniProt Q86Z02); cell-free assay; 0.1 µM).
SGK3 (Homo sapiens, UniProt Q96BR1); cell-free assay; 0.1 µM — remaining binding: 84%.
It gave 81% for remaining binding (PIP4K2B (Homo sapiens, UniProt P78356); cell-free assay; 0.1 µM).
For KIT (Homo sapiens, UniProt P10721, V559D/V654A); cell-free assay; 0.1 µM: remaining binding read 100%.
The remaining binding was 90% (MAP2K5 (Homo sapiens, UniProt Q13163); cell-free assay; 0.1 µM).
The remaining binding was 48% (RIPK4 (Homo sapiens, UniProt P57078); binding; 1 µM).
The remaining binding was 94% (ACVRL1 (Homo sapiens, UniProt P37023); cell-free assay; 0.1 µM).
For PRKX (Homo sapiens, UniProt P51817); cell-free assay; 0.1 µM: remaining binding read 86%.

Set 4 — concentration: 1 µM
SMILES: C=CC(=O)N1CCC([C@@H]2CCNc3c(C(N)=O)c(-c4ccc(Oc5ccccc5)cc4)nn32)CC1
It gave 27% for inhibition (FGFR1 (Homo sapiens, UniProt P11362); cell-free assay).
It gave 5% for inhibition (RET (Homo sapiens, UniProt P07949, M918T); enzyme activity, inhibitor).
For CSNK1A1L (Homo sapiens, UniProt Q8N752); enzyme activity, inhibitor: inhibition read 24%.
For HUNK (Homo sapiens, UniProt P57058); enzyme activity, inhibitor: inhibition read 0%.
The inhibition was 34% (RIOK3 (Homo sapiens, UniProt O14730); enzyme activity, inhibitor).
It gave 12% for inhibition (KIT (Homo sapiens, UniProt P10721, D816V); enzyme activity, inhibitor).
PIP4K2B (Homo sapiens, UniProt P78356); enzyme activity, inhibitor — inhibition: 9%.
For MAP2K1 (Homo sapiens, UniProt Q02750); enzyme activity, inhibitor: inhibition read 100%.

A few entries again (set 3):
It gave 81% for remaining binding (PIP4K2B (Homo sapiens, UniProt P78356); cell-free assay; 0.1 µM).
For KIT (Homo sapiens, UniProt P10721, V559D/V654A); cell-free assay; 0.1 µM: remaining binding read 100%.
The remaining binding was 90% (MAP2K5 (Homo sapiens, UniProt Q13163); cell-free assay; 0.1 µM).
The remaining binding was 48% (RIPK4 (Homo sapiens, UniProt P57078); binding; 1 µM).
